Measurements from different studies.
Protocols differ between the studies behind these lines.
Method: steady-state kinetics
B1: trypsin (Saccharopolyspora erythraea, UniProt Q54137); chain IVGGEDANVQDHPFTVALVTPDGQQFCGGTLAAPNKVVTAAHCTVGSQPADINVVSGRTVMSSNEGTVSKVTNVWVHPEYQDAAKGFDVSVLTLEAPVKEAPIELAKADDAGYAPDTAATILGWGNTSEGGQQADHLQKATVPVNSDDTCKQAYGEYTPDAMVCAGVPEGGVDTCQGDSGGPMVVNNKLIGVTSWGEGCARPGKPGVYARVGAYYDVLMEQINAGAVSAR
B2: enzyme E323G (UniProt H9KVH3); chain ADASQIVSEMGAGWNLGNQLEAAVNGTPNETAWGNPTVTPELIKKVKAAGFKSIRIPVSYLNNIGSAPNYTINAAWLNRIQQVVDYAYNEGLYVIINIHGDGYNSVQGGWLLVNGGNQTAIKEKYKKVWQQIATKFSNYNDRLIFESMNEVFDGNYGNPNSAYYTNLNAYNQIFVDTVRQTGGNNNARWLLVPGWNTNIDYTVGNYGFTLPTDNYRSSAIPSSQKRIMISAHYYSPWDFAGEENGNITQWGATSTNPAKKSTWGQEDYLESQFKSMYDKFVTQGYPVVIGGFGSIDKTSYDSSNNVYRAAYAKAVTAKAKKYKMVPVYWDNGHNGQHGFALFNRSNNTVTQQNIINAIMQGMQ
B3: Nudt8 (Mus musculus, UniProt Q9CR24); chain MLPDGLSAEDEQRCRQLLARTTARLRSRPAAAAVLVPLCLVRGVPALLYTLRSSRLVGRHKGEVSFPGGKCDPDDQDVIHTALRETQEELGLEVPKEHVWGVLQPVYDREKATIVPVLANVGPLDLQSLRPNLEEVDEVFEMSLAHLLQTQNQGYTHFCQGGHFSYTLPVFLHGPHRVWGLTAVITELTLKLLAPGFYQPSLAVPELPRG
B4: enzyme (Irpex lacteus, UniProt A0A510I1H7); chain QSQVWGQCGGIGWTGATTCVAGSVCTKSNDYYSQCIPGAAAPSSAPPASTPVSVPPSQPSGSSGGLANIPASKLTQFSNFGTNPNNVQMFVYKPKNVAANPPLIVASHYCSGTAQAYFTGSKFAQLAETYGYVVIFPSSPHSGTCWDVSSDETLMHDGGSDSLSIANAARFAISNWGVDPNRVFAVGTSSGAMMTSVLAGAYPDIFKAGIVDSGVAFGCFAVPGQPEDSWNSQCSEGQLVLTGQQWAQKVKNAFPGFTGTYPKMQVWHGTADTTLYPQNFFEEVKQWTTIFNYPSTPLSNVTQTNLGSNYHNATFGPNFQAILATGVGHTVPLFEQQYLQFLGIA
B5: FDC1 (Saccharomyces cerevisiae, UniProt Q03034); chain MRKLNPALEFRDFIQVLKDEDDLIEITEEIDPNLEVGAIMRKAYESHLPAPLFKNLKGASKDLFSILGCPAGLRSKEKGDHGRIAHHLGLDPKTTIKEIIDYLLECKEKEPLPPITVPVSSAPCKTHILSEEKIHLQSLPTPYLHVSDGGKYLQTYGMWILQTPDKKWTNWSIARGMVVDDKHITGLVIKPQHIRQIADSWAAIGKANEIPFALCFGVPPAAILVSSMPIPEGVSESDYVGAILGESVPVVKCETNDLMVPATSEMVFEGTLSLTDTHLEGPFGEMHGYVFKSQGHPCPLYTVKAMSYRDNAILPVSNPGLCTDETHTLIGSLVATEAKELAIESGLPILDAFMPYEAQALWLILKVDLKGLQALKTTPEEFCKKVGDIYFRTKVGFIVHEIILVADDIDIFNFKEVIWAYVTRHTPVADQMAFDDVTSFPLAPFVSQSSRSKTMKGGKCVTNCIFRQQYERSFDYITCNFEKGYPKGLVDKVNENWKRYGYK
B6: Hpo (Pseudomonas putida, UniProt F8G0M1); chain MDHVSFTEICLRQLKMSGVHEGERLIVLTQGHERLAYADAFMAAGQRLGAEMYHMRLPSPLPSNGWAVGVTGLADLPGAVEALKNCDMLIDCVFLLFSAEQFEIQAAGTRILTAVEPPELLARMLPFPELREKVSIAAELVENAKDMRITSPHGTDITYKLNTYPTIAEYACTDTPGRWDHWPSGFVFTGGDDDGVDGTIVVAPGDVLLPQNLMVREPITYTIEKGWIVDIRGGLEAQIVNSYMDSFNDPRGKGMSHVGWGMNPHAKWHNFVPGQFTGGMGMELRSFYGNVMFSTGPNNELGGSNDTACHLDIPMRNCSLFLDDTPVVIDGDIVVKEIQLVQR
B7: Tat (Mus musculus, UniProt Q8QZR1); chain WNVRPSDMSNKTFNPIRAIVDNMKVKPNPNKTVISLSIGDPTVFGNLPTDPEVTQAMKDALDSGKYNGYAPSIGYLSSREEVASYYHCPEAPLEAKDVILTSGCSQAIELCLAVLANPGQNILIPRPGFSLYRTLAESMGIEVKLYNLLPEKSWEIDLKQLESLIDEKTACLVVNNPSNPCGSVFSKRHLQKILAVAERQCVPILADEIYGDMVFSDCKYEPMATLSTNVPILSCGGLAKRWLVPGWRLGWILIHDRRDIFGNEIRDGLVKLSQRILGPCTIVQGALKSILQRTPQEFYQDTLSFLKSNADLCYGALSAIPGLQPVRPSGAMYLMVGIEMEHFPEFENDVEFTERLIAEQSVHCLPATCFEYPNFFRVVITVPEVMMLEACSRIQEFCEQHY
B8: Mj-MAT W387F/Y85W (Methanocaldococcus jannaschii, UniProt Q58605); chain MRNIIVKKLDVEPIEERPTEIVERKGLGHPDSICDGIAESVSRALCKMYMEKFGTILHHNTDQVELVGGHAYPKFGGGVMVSPIWILLSGRATMEILDKEKNEVIKLPVGTTAVKAAKEYLKKVLRNVDVDKDVIIDCRIGQGSMDLVDVFERQKNEVPLANDTSFGVGYAPLSTTERLVLETERFLNSDELKNEIPAVGEDIKVMGLREGKKITLTIAMAVVDRYVKNIEEYKEVIEKVRKKVEDLAKKIADGYEVEIHINTADDYERESVYLTVTGTSAEMGDDGSVGRGNRVNGLITPFRPMSMEAASGKNPVNHVGKIYNILANLIANDIAKLEGVKECYVRILSQIGKPINEPKALDIEIITEDSYDIKDIEPKAKEIANKFLDNIMEVQKMIVEGKVTTF
B9: protein Y93P (Thermus thermophilus, UniProt Q5SKR5); chain MSAPKPFVIGIAGGTASGKTTLAQALARTLGERVALLPMDHYYKDLGHLPLEERLRVNYDHPDAFDLALYLEHAQALLRGLPVEMPVYDFRAPTRSPRRTPVRPAPVVILEGILVLYPKELRDLMDLKVFVDADADERFIRRLKRDVLERGRSLEGVVAQYLEQVKPMHLHFVEPTKRYADVIVPRGGQNPVALEMLAAKALARLARMGAA
UniProt Q27593, sequence (whole entry, looked up): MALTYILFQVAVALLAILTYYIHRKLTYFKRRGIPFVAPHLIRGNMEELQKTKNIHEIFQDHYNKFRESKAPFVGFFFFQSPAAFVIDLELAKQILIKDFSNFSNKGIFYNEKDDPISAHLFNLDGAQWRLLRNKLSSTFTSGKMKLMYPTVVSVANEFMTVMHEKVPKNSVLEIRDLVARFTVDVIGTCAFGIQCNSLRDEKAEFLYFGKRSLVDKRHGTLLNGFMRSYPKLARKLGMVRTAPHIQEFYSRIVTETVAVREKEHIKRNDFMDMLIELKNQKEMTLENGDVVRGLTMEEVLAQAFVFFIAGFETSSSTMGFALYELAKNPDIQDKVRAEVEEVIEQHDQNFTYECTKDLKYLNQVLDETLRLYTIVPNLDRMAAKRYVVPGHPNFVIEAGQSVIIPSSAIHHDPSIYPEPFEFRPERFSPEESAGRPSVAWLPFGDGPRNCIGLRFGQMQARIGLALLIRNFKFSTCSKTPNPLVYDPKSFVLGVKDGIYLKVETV
UniProt P0AEJ2, sequence (whole entry, looked up): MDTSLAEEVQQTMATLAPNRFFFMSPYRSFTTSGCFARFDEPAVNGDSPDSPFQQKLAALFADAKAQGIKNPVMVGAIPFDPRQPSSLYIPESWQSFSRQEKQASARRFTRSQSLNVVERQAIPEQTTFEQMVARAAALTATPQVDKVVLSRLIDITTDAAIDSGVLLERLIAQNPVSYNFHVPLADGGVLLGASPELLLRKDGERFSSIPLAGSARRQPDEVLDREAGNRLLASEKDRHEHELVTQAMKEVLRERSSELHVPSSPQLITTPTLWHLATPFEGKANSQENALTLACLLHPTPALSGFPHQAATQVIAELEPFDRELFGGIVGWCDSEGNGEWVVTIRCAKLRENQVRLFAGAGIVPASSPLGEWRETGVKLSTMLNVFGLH
UniProt A8M783, sequence (whole entry, looked up): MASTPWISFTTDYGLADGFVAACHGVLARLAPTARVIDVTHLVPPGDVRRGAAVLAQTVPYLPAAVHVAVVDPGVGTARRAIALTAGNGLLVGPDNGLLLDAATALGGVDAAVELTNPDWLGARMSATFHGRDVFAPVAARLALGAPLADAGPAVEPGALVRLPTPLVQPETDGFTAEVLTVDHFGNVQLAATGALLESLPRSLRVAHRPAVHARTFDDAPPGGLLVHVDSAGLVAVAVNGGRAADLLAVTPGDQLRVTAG
UniProt Q9SKC5, sequence (whole entry, looked up): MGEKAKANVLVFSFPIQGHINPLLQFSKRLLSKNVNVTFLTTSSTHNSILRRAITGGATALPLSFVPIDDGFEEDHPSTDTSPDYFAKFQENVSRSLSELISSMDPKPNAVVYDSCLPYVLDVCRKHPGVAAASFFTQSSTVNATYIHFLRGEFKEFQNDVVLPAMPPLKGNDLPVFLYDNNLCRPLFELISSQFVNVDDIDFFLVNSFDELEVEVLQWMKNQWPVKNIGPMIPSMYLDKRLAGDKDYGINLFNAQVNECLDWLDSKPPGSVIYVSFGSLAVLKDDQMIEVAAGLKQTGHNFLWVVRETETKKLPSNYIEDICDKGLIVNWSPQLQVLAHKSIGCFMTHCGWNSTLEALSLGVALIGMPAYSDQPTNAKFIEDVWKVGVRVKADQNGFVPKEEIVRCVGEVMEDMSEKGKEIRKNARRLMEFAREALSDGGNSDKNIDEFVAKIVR
UniProt P00813, sequence (whole entry, looked up): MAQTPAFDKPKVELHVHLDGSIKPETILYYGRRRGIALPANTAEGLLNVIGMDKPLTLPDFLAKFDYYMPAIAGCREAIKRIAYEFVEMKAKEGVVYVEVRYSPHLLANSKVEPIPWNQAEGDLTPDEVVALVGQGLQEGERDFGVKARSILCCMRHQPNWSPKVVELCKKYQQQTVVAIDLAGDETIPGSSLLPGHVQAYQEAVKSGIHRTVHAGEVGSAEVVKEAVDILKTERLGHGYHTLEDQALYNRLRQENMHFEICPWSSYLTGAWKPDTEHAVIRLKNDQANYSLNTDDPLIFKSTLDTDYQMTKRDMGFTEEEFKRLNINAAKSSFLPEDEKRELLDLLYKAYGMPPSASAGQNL

enzyme (Trypanosoma brucei, UniProt Q8WQX5)
Km (O=c1ccn([C@@H]2O[C@H](COP(=O)(O)OP(=O)(O)OP(=O)(O)O)[C@@H](O)[C@H]2O)c(=O)[nH]1; pH 8, 27 °C, apparent): 6.6 µM

B1 (trypsin)
Km (NCCCC[C@H](NC(=O)c1ccccc1)C(=O)Nc1ccc([N+](=O)[O-])cc1; pH 8, 25 °C): 680 µM

ADE5,7 (Cryptococcus neoformans, UniProt J9VYP5)
Km (NCC(=O)O; pH 8, 37 °C, apparent): 496 µM

B2 (enzyme E323G)
Km (OC[C@H]1O[C@H](F)[C@H](O)[C@@H](O)[C@@H]1O[C@@H]1O[C@H](CO[C@H]2OC[C@@H](O)[C@H](O)[C@H]2O)[C@@H](O[C@@H]2O[C@H](CO[C@H]3OC[C@@H](O)[C@H](O)[C@H]3O)[C@@H](O[C@@H]3O[C@H](CO[C@H]4OC[C@@H](O)[C@H](O)[C@H]4O)[C@@H](O)[C@H](O)[C@H]3O)[C@H](O)[C@H]2O)[C@H](O)[C@H]1O; pH 7.5, 30 °C, apparent): 9500 µM

CYP6A8 (Drosophila melanogaster, UniProt Q27593)
Km (CCCCCCCCCCCC(=O)O; DLPC; pH 7.4, 37 °C, total hydroxylation, with: P450 reductase, NADPH): 10.7 µM

B3 (Nudt8)
Km (CC(C)(COP(=O)(O)OP(=O)(O)OC[C@H]1O[C@@H](n2cnc3c(N)ncnc32)[C@H](O)[C@@H]1OP(=O)(O)O)[C@@H](O)C(=O)NCCC(=O)NCCSC(=O)CC(=O)O; pH 8.5, with: 2 mM Mn2+): 233 µM

ADA (Homo sapiens, UniProt P00813)
Km (Nc1ncnc2c1ncn2[C@@H]1O[C@H](CO)C[C@H]1O; human erythrocytes; pH 5.8, 37 °C): 70.4 µM

entC (Escherichia coli, UniProt P0AEJ2)
Km (C=C(O[C@@H]1C=C(C(=O)O)C=C[C@H]1O)C(=O)O; pH 8, 21 °C, apparent): 53 µM

B4 (enzyme)
Km (CC(=O)Oc1ccc([N+](=O)[O-])cc1; pH 6, 30 °C): 1400 µM

B5 (FDC1)
Km (COc1cc(/C=C/C(=O)O)ccc1O; pH 7, 25 °C, apparent kcat, incomplete cofactor occupancy, apparent): 180 µM

protein (Salinispora arenicola, UniProt A8M783)
Km (C[S+](CC[C@H](N)C(=O)O)C[C@H]1O[C@@H](n2cnc3c(N)ncnc32)[C@H](O)[C@@H]1O; pH 7.9, 37 °C, apparent): 1.6 µM

alanine aminopeptidase (Neisseria meningitidis, UniProt Q9JYV4)
Km (NC(=O)Cc1cc(=O)oc2cc(NC(=O)[C@@H](N)CC3CCCCC3)ccc12; pH 7.5, 37 °C): 122 µM

B6 (Hpo)
Km (Oc1ccc(O)nc1; pH 7.5, 20 °C, with: O2; Fe2+ 0.025 mM): 138 µM

B7 (Tat)
Km (O=C(O)C(=O)Cc1ccc(O)cc1; pH 7, 38 °C, with: PLP): 700 µM

UGT74D1 (Arabidopsis thaliana, UniProt Q9SKC5)
Km (O=C(O)Cc1c[nH]c2ccccc12; pH 7.5, 30 °C): 88.3 µM

B8 (Mj-MAT W387F/Y85W)
Km (CSCC[C@H](N)C(=O)O; 55 °C, with: ATP 2.5 mM, methionine 0.05-1 mM): 570 µM

B9 (protein Y93P)
Km (Nc1ccn([C@@H]2O[C@H](CO)[C@@H](O)[C@H]2O)c(=O)n1; pH 7.2, 25 °C, KCl 100 mM, with: ATP 100–200 µM): 555 µM
